Experimental data pooled from the literature.
Lines come from different studies, so protocols differ.

CC(C)C[C@H](NC(=O)[C@H](CCCNC(=N)N)NC(=O)CNC(=O)CNC(=O)[C@@H](N)CCCNC(=N)N)C(=O)N[C@H]1CSSC[C@@H](C(=O)N[C@H](C(=O)NCC(=O)N[C@@H](CCCNC(=N)N)C(N)=O)C(C)C)NC(=O)[C@H](C(C)C)NC(=O)[C@@H]2CSSC[C@H](NC(=O)[C@H](Cc3ccc(O)cc3)NC1=O)C(=O)N[C@@H](CCCNC(=N)N)C(=O)N[C@@H](CCCNC(=N)N)C(=O)N[C@@H](CCCNC(=N)N)C(=O)N[C@@H](Cc1ccccc1)C(=O)N2  maximum tolerated dose (BALB/c mice; intraperitoneal, mild toxicity resolved by 24 h): 5 mg/kg
Cc1c(CN(C)C(=O)/C=C/c2cnc3c(c2)CC(N)C(=O)N3)oc2ccccc12 (centres unmarked)  maximum tolerated dose (C57BL/6 mice female; intraperitoneal, 2 weeks, single dose): 50 mg/kg
CC(C)(C)C(=O)OCOP(=O)(OCOC(=O)C(C)(C)C)C1CCCN(O)C1=O (centres unmarked)  maximum tolerated single dose (nude mice; intravenous): 30 mg/kg
CCCC[C@H]1C(=O)N(C)[C@@H](CCCC)C(=O)N[C@@H](CCCNC(=O)CN2CCN(CC(=O)O)CCN(CC(=O)O)CCN(CC(=O)O)CC2)C(=O)N[C@H](C(=O)NCC(N)=O)CSCC(=O)N[C@@H](Cc2ccc(O)cc2)C(=O)N(C)[C@@H](C)C(=O)N[C@@H](CC(N)=O)C(=O)N2CCC[C@H]2C(=O)N[C@@H](Cc2c[nH]cn2)C(=O)N[C@@H](CC(C)C)C(=O)N(C)CC(=O)N[C@@H](Cc2c[nH]c3ccccc23)C(=O)N[C@@H](CO)C(=O)N[C@@H](Cc2c[nH]c3ccccc23)C(=O)N1C [gallium-68 labelled]  maximum tumour uptake (dynamic PET; NOD/SCID mice, CHO-hPD-L1 xenograft, CHO-hPD-L1 tumour; intravenous, 120 min scan): 6.29 %ID/g
CN[C@@H]1[C@H](O)[C@H](NC)[C@H]2O[C@]3(O)[C@H](O[C@@H]2[C@H]1O)O[C@H](C)C[C@@]3(O)CNCCC1CCOCC1  maximum tolerated dose (female BALB/c mice; subcutaneous, 3 days, twice daily): 100 mg/kg
C[C@H](Nc1c(-c2c(F)cc(OCCCN(C)C)cc2F)c(Cl)nc2ncnn12)C(F)(F)F  maximum tolerated dose (BALB/c mice; intraperitoneal, up to 48 h, single increasing doses): 10 to 15 mg/kg
CC[C@H](C)[C@@H]1NC(=O)[C@@H]2CSSC[C@@H]3NC(=O)[C@H](C(C)C)NC(=O)CNC(=O)CNC(=O)[C@H](CCCNC(=N)N)NC(=O)[C@H](CCCNC(=N)N)NC(=O)CNC(=O)[C@H](C(C)C)NC(=O)[C@@H]4CSSC[C@H](NC(=O)[C@H](CC(C)C)NC(=O)[C@H](CCCNC(=N)N)NC(=O)CNC(=O)CNC(=O)[C@H](CO)NC(=O)CNC(=O)[C@H](CO)NC(=O)CNC(=O)[C@@H]5CSSC[C@H](NC(=O)[C@H](CC(=O)O)NC(=O)[C@H](CO)NC(=O)[C@H](CC(=O)O)NC(=O)[C@H](CCCNC(=N)N)NC(=O)[C@H](CCCNC(=N)N)NC(=O)[C@H](CSSC[C@H](NC1=O)C(=O)N[C@@H](CCCNC(=N)N)C(=O)NCC(=O)N[C@@H](CC(N)=O)C(=O)NCC(=O)N[C@@H](Cc1ccc(O)cc1)C(=O)N5)NC(=O)[C@H](CCCNC(=N)N)NC(=O)[C@H](CCC(N)=O)NC(=O)[C@H](CC(C)C)NC(=O)[C@H]([C@@H](C)CC)NC(=O)[C@H](CCCCN)NC(=O)[C@@H]1CCCN1C3=O)C(=O)N1CCC[C@H]1C(=O)NCC(=O)N[C@@H](C)C(=O)N2)C(=O)N[C@@H](Cc1ccc(O)cc1)C(=O)N[C@H]1CSSC[C@H](NC(=O)[C@H](Cc2ccccc2)NC(=O)[C@H](CCCNC(=N)N)NC(=O)[C@H](CCCNC(=N)N)NC(=O)[C@H](CCCNC(=N)N)NC1=O)C(=O)N[C@@H](C(C)C)C(=O)N4  maximum tolerated dose (BALB/c mice; intraperitoneal, mild toxicity resolved by 24 h): 25 mg/kg
N=C(N)NCCC[C@@H](NC(=O)[C@@H](CCCNC(=N)N)NC(=O)[C@@H](CCCNC(=N)N)NC(=O)[C@@H](CCCNC(=N)N)NC(=O)[C@@H](CCCNC(=N)N)NC(=O)[C@@H](CCCNC(=N)N)NC(=O)[C@@H](CCCNC(=N)N)NC(=O)[C@@H](CCCNC(=N)N)NC(=O)[C@@H](CCCNC(=N)N)NC(=O)CCC(=O)NCCOCCOCCNC(=O)CCC(=O)NCCOCCOCCNC(=O)[C@@H](CCC(=O)O)NC(=O)[C@@H](CCC(=O)O)NC(=O)[C@@H](CCC(=O)O)NC(=O)[C@@H](CCC(=O)O)NC(=O)[C@@H](CCC(=O)O)NC(=O)[C@@H](CCC(=O)O)NC(=O)[C@@H](CCC(=O)O)NC(=O)[C@@H](CCC(=O)O)NC(=O)CCC(=O)O)C(N)=O  maximum tolerated dose ratio (athymic nude mice; intravenous, dose not given; relative to: cell-penetrating peptide): ≥ 20 fold

A few entries again:
C[C@H](Nc1c(-c2c(F)cc(OCCCN(C)C)cc2F)c(Cl)nc2ncnn12)C(F)(F)F  maximum tolerated dose (BALB/c mice; intraperitoneal, up to 48 h, single increasing doses): 10 to 15 mg/kg
